Measurements gathered from unrelated publications.
Each numbered part is a random draw from the data of one study; scales do not carry over between parts.

Set 1
Target: RNA binding protein fox-1 homolog 2, RRM domain, GST-SBP tag (RBFOX2, Homo sapiens, UniProt O43251-10, residues 100-194)
Method: RNA Bind-n-Seq
Molecule type: RNA
Matrix: in vitro
Tested at: 365 nM
Setting: natural RNA segment, single round, ends assumed
Reference: no-protein control
Reading: higher = stronger binding
All sequences stand within: GGGAGUUCUACAGUCCGACGAUC … UGGAAUUCUCGGGUGCCAA
Target sequence (chain): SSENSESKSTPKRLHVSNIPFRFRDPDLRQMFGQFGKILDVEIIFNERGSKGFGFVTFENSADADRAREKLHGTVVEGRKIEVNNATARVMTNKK
| Strand | RBNS enrichment (R) |
| --- | --- |
| GUUUUCGGCAGGGGCCUUGUCUCUCACUGCAUUUGGUCAGGGGGGCAUGAAUAAAGGCUACAGGCUCAACGUGUGUGGCAGCUUUCGGUCUUUCCCUCUGGGUGCUUGGU | 3.6 |
| AGCUCAGGGCAAUGGCAGACCAGAUUGUGGGUCUCCAGCCUUGCAUGGCUGGCAGCCAGAUCCUGGGGCAACCCAUCUGGUCUCUUGAAUAAAGGUCAAAGCUGGAUUCU | 0.417 |
| AGUUUCCCUAGAUAUACUCCUGCCUCCAGGUGCUGGGACACACCUUUGCAAAAUGCUGUGGGAAGCAGGAGCUGGGGAGCUGUGUUAAGUCAAAGUAGAAACCCUCCAGU | 0.503 |
| AUGCCAUGCGUGCUCCAGAGCCUAGGAACAGCAGACAGAACCCAGUUGGAAUGCUUCUACCCUGGCUUCUAAAUUCAGGCCUGUGGGUAAUCCCAAGUAUACAGGAAAUU | 0.377 |
| GGGCCGAGGUUUGCUGUGGUUCUUGUUUCAGACUGGCGUGCUGAGUGCUGGAAGCUGUUUGCACCUUUGUCAGGACACUGCGUUUCAGAAGCCACUGUUCCCUCUGGUGG | 0.504 |
| CCAUCCCGGGUUUGGCUGAGCCUGGCUGGAGAGCUGCUAUGCUAAACCUCCUGCCUCCCAAUACCAGCAGGAGGUUCUGGGCCUCUGAACCCCCUUUCCCCACACCUCCC | 0.733 |
| GAGUUAUAAAUGAUGGUUUAGUUCUCAGGCAGCUACAAAUGCCUAUUUAUUCCCUAAUGUACCUGAACACUAGUACCAUAGAACUGAACCACCAUCUGUAUCAGCGCAUG | 1.3 |
| AAGUACUUAAUGGGGAAAAAAAAGCAGAAAUGUCAACAUUUGACCAAAUUAACACUACCUCCUCCCCAGUUGUUGGUAUUCAUUCAUUAUAUGUGUGUUUAACAGGAUGA | 0.283 |

Set 2
Target: Sal-like protein 4, full length isoform B (SALL4, Homo sapiens, UniProt Q9UJQ4-2, residues 1-616)
Method: universal PBM
Molecule type: double-stranded DNA, one strand shown
Matrix: in vitro
Tested at: not given
Setting: 8-mer, flanks averaged, mean of replicates
Reading: higher = stronger binding
Residues (chain): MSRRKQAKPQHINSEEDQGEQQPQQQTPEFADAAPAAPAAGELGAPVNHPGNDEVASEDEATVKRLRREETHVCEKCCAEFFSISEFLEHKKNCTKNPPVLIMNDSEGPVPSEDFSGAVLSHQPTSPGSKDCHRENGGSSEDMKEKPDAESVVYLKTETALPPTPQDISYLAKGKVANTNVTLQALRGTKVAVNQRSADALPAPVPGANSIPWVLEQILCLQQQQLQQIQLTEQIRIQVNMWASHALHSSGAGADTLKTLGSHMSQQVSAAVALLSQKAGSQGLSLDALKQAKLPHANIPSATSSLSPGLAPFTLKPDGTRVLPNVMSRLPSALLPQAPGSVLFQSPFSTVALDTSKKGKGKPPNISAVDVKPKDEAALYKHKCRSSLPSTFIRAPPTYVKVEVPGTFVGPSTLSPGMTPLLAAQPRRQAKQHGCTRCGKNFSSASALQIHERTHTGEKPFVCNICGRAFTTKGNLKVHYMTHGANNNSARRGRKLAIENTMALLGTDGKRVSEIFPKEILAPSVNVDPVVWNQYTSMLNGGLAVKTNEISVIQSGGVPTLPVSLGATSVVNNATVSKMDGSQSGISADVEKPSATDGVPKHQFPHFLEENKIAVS
| Strand | E-score |
| --- | --- |
| CGCTAACC | -0.187 |
| ATCGTAGG | 0.0129 |
| ATACAGGA | 0.194 |
| AACCGGTT | -0.118 |
| GCCTTGCC | -0.202 |
| GTCTACAA | 0.0298 |
| TCTACCCA | -0.0616 |
| CATGGTAA | 0.187 |
| TGAAGCAA | 0.0694 |
| TACTTTGA | 0.075 |
| CATGGATA | 0.192 |
| ATCGAACA | 0.0639 |
| GGATCTCA | -0.094 |
| ATTTAACC | 0.164 |
| GAGATAAC | 0.0281 |
| GGCCGGCC | -0.32 |
| CGATCCGA | -0.223 |
| AATCAGTA | 0.176 |
| ATAGTACA | 0.119 |
| AGCGTCAC | -0.216 |
| CGGCGCTC | -0.302 |
| ATCAATAA | 0.414 |
| ATTGAATA | 0.369 |
| AAGAGACC | -0.15 |
| CTTCCAAG | -0.062 |

Set 3
Target: RING finger protein unkempt homolog, zinc fingers 1-6, GST-SBP tag (UNK, Homo sapiens, UniProt Q9C0B0, residues 30-357)
Sequence of UniProt Q9C0B0 (30-357, looked up): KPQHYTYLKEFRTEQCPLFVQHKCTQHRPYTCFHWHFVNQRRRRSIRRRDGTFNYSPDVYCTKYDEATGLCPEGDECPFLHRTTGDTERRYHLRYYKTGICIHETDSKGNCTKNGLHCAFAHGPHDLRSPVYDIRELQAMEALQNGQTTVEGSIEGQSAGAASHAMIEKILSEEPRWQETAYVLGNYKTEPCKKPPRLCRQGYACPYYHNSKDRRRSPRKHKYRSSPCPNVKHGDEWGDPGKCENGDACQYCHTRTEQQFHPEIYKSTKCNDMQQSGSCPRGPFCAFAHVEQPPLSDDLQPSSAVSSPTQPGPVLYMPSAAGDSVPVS
Method: RNA Bind-n-Seq
Molecule type: RNA
Matrix: in vitro
Tested at: not given
Setting: RNA with constant flanks, ends assumed
Reference: input RNA pool
Reading: higher = stronger binding
All sequences stand within: GGGAGUUCUACAGUCCGACGAUC … CAACAGAGGAUUGAGCAUCA
| Strand | bound/input enrichment |
| --- | --- |
| GCCCAGGGUCGCCAUGUGGAAAUAUUUGAGCUCCUUAAACCUCCGUGUGGAGGCCUCGGCUUCCGUGUUGUUGGGCUCAGAAGUGAAAACAGGGGCGAGCUGGGGAUAUUUGUCCAGGAG | 0.201 ratio |
| CCUCCACCUAAUGCAGAUCCCAAUAUGAAGUUAUUUACAAUUCGGGGCACUCCACAGCAAACCGACUAUGCUCGACAACUCAUAGAAGAGAAGAUUGGGGGCCCAGUAAAUCCUUUAGGG | 0.315 ratio |
| AAGGAUUCUCUGCCUCGCUUUGUGCGCUCUGAGUUUUAUCAGGAGUUAAUCAAGUAGUAAUUCCGCCAGGCUAUGAAAUCAUCCUGUGAGUUAUUUCCUCCAUAAUAACCCUGCAUUUCC | 0.209 ratio |
| UCUGACAGGAAUAUAGUACUGUACGAUAUGAGGCAAGCUACUCCUUUGAAAAAGGUUAUCUCCGAUAUGAGAACAAAUACAAUCUGUUGGAACCCUAUGGAAGCUUUCAUUUUUACAGCA | 0.224 ratio |
| GUUUUUAACGAUGGCAGUUCCAGGGAACUAAUGAACCUCACUGGAACAAUCCCUGUGCCUUACCGAGGUAAUACAUACAAUAUUCCAAUAUGCCUAUGGCUACUGGACACAUACCCAUAU | 0.128 ratio |
| UUGUAGUCCUAAAAAGAUUUUUUUUUUUUAAAAUAAAGUCCAUCCUUGCAUUUAGGUUUUACCGAUCAGUCUUUUUAUUCCCACCCCUCCCCCAGUCGCAUUGAUCCCUAAUGGUGUGCU | 2.94 ratio |
| UUCUGUGCACAUCAGUUGGCUGGUGAACAAGGCUAUAUCAGACUUAUUUUCCAAGGACCUUCCGACCCGCAGCUGUCCUCCAGGACUGCAUUGUAAGUUUAUAAGCUAAGUGAUUGGGUU | 0.248 ratio |
| CAAUAUAUAUCUCCAUUUCAUGAUAUUCCAAUUUAUGCAGAUAAGGAUGUGUUUCACAUGGCCGUUGAAGUACCACGCUGGUCUAAUGCAAAAAUGGAGAUUGCUACAAAGGACCCUUUA | 0.144 ratio |

Set 4
Target: Ras GTPase-activating protein-binding protein 1, C-terminal RGG region (G3BP1, Homo sapiens, UniProt Q13283)
Sequence of UniProt Q13283 (whole entry, looked up): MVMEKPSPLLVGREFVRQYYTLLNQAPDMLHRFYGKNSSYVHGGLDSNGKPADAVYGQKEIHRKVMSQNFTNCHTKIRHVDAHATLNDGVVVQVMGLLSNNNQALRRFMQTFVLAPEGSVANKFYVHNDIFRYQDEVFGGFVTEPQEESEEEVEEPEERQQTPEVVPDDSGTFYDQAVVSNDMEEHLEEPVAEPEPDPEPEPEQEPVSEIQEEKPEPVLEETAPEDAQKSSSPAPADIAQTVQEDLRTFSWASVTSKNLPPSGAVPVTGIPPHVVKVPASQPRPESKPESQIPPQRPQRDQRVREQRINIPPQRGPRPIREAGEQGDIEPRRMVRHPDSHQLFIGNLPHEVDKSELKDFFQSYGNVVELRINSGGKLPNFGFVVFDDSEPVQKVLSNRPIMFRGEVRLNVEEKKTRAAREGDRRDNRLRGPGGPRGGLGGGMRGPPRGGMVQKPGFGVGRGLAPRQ
Method: RNA Bind-n-Seq
Molecule type: RNA
Matrix: in vitro
Tested at: 1 µM
Setting: whole 134-nt RNA, ends assumed
With: 150 mM KCl
Reference: input library
Reading: higher = stronger binding
All sequences stand within: GGGAGUUCUACAGUCCGACGAUC … UGGAAUUCUCGGGUGUCAAGG
| Strand | log2 enrichment |
| --- | --- |
| CUCAAGUCCUGUGCUACACAUCGUAUGUACCGAAUCGGCCGGGCCGGGCCGGGGAAAGUAUUAUGUUACGCCGUUCGGAUCUGCACUUCC | -1.28 |
| CCUCAAGUCCUGUGCUACACAUCGUAUGUACCGAAUCGGGGUGGGUGGGUGGAAAGUAUUAUGUUACGCCGUUCGGAUCUGCACUUCCAG | 1.68 |
| CAAGUCCUGUGCUACACAUCGUAUGUACCGAAUCGGGUUUGGUUUGGGGUUUGGGAAAGUAUUAUGUUACGCCGUUCGGAUCUGCACUUC | 0.0851 |
| AAGUCCUGUGCUACACAUCGUAUGUACCGAAUCGGUUUUGGGGUUUUGGUUUUGGGGAAAGUAUUAUGUUACGCCGUUCGGAUCUGCACU | -1.18 |
| CUGUGCUACACAUCGUAUGUACCGAAUCGGGGUUUUUUUGGGGUUUUUUUGGGGAAAGGGGAAAGUAUUAUGUUACGCCGUUCGGAUCUG | -0.222 |
| UCCUGUGCUACACAUCGUAUGUACCGAAUCGGGGUUUUUGGGGUUUUUUUGGGGAGGGGAAAGUAUUAUGUUACGCCGUUCGGAUCUGCA | 1.58 |
| AAGUCCUGUGCUACACAUCGUAUGUACCGAAUCGGGGCCCCGGCCCCGGCCCCGGGAAAGUAUUAUGUUACGCCGUUCGGAUCUGCACUU | -1.97 |
| UCCUGUGCUACACAUCGUAUGUACCGAAUCGGGUUUUUUUGGGUUUUUGGGAAAAAGGGAAAGUAUUAUGUUACGCCGUUCGGAUCUGCA | -0.626 |
| UGCCCAGCUCAUGCUGGACCACCUGAAGAACAGUGCUCCCAGCAAGCGAGAGAUUGCCCAGCUCAAGAACCAGGUAUCCACAGAGAGCAC | -1.72 |

Excerpt of the above (set 2):
| Strand | E-score |
| --- | --- |
| CATGGTAA | 0.187 |
| ATCGAACA | 0.0639 |
| TCTACCCA | -0.0616 |
| AACCGGTT | -0.118 |
| ATCGTAGG | 0.0129 |
